Assay results of several laboratories.
Compare with care: the assays were run in different laboratories. Numbers after ± are the reported error.
Target: Cytochrome P450 2C9 (CYP2C9, Homo sapiens, UniProt P11712)
Sequence of UniProt P11712 (whole entry, looked up): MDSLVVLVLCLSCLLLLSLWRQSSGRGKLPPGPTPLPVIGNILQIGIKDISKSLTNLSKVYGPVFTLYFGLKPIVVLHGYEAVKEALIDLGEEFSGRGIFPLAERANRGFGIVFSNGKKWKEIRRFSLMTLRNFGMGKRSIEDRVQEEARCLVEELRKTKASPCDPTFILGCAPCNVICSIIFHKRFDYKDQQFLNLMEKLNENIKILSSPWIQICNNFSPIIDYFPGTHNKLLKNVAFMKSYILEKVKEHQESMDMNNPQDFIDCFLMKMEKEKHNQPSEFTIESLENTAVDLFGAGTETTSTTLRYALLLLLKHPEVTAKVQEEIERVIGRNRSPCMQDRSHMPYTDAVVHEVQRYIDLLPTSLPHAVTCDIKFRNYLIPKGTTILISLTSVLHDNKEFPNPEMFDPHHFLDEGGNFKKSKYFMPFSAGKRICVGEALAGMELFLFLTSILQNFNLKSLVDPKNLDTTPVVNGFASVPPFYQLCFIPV

Compound | test | test system | setting | how to read | quantity | result
CC(C)CC(=O)OC[C@H]1O[C@@](C#N)(c2ccc3c(N)ncnn23)[C@H](O)[C@@H]1O | metabolic stability | recombinant enzyme | 1 µM, 30 min |  | remaining compound | 98.2 ± 2%
CS(=O)(=O)Nc1ncn(-c2cc(F)c(COc3ccc(OS(=O)(=O)F)cc3)c(F)c2)n1 |  |  |  |  | IC50 | > 50 µM
N#Cc1ccc([C@H]2CCc3cncn32)c(F)c1 | inhibitor |  |  |  | Ki | 20 µM
Cc1cc(C)nc(Nc2ncc(C(=O)NCCc3c(C)[nH]c4ccccc34)cn2)c1 | recombinant enzyme phenotyping |  | 1 µM, 30 min |  | fraction metabolised | 2.1%
S=C=NCCc1ccccc1 | enzyme activity | human liver microsomes | concentration not given, together with: tolbutamide |  | inhibition | ~58%
CCC[S+]([O-])c1ccc2[nH]c(NC(=O)OC)nc2c1 (stereo not drawn) | inhibitor | human liver microsomes | 10 µM, pH 7.4, together with: diclofenac |  | inhibition | 9%
Cn1nccc1[C@]1(CNC(=O)c2ccc(F)c(F)c2-c2ccc(C(F)(F)F)cc2)NC(=O)NC1=O |  | human liver microsomes | together with: diclofenac | no inhibition up to value | IC50 | > 20 µM
O=C1Cc2cc(CCN3CCN(c4nsc5ccccc45)CC3)c(Cl)cc2N1 | inhibitor | human liver microsomes | 10 µM, pH 7.4, together with: diclofenac |  | inhibition | 1%
O=C/C=C/c1ccccc1 | inhibitor |  |  |  | IC50 | 43.3 mg/L

Repeated from above:
Compound | test | test system | setting | how to read | quantity | result
CC(C)CC(=O)OC[C@H]1O[C@@](C#N)(c2ccc3c(N)ncnn23)[C@H](O)[C@@H]1O | metabolic stability | recombinant enzyme | 1 µM, 30 min |  | remaining compound | 98.2 ± 2%
